Experimental data of several laboratories.
Parts stem from different laboratories: compare values within a part only. Positions count from the first letter of the parent shown.

Sample 1
Target: Histone acetyltransferase KAT6A, winged helix 2, GST fusion (KAT6A, Homo sapiens, UniProt Q92794, residues 85-181)
Technique: protein binding microarray
Form: double-stranded DNA, one strand shown
Sample: in vitro
Concentration: not given
Notes: 8-mer, flanks averaged, mean of 2 arrays, mostly near background
Relative to: not given
Direction: higher = stronger binding
Endpoint: E-score
Construct (chain): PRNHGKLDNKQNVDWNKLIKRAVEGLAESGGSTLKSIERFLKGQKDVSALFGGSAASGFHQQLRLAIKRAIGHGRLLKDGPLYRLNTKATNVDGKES
AGAGTGAG: -0.0428
CAGACCGC: 0.252
GATATGAA: -0.0422
CGATTAAG: -0.0406
AACGTGTG: -0.231
GGATATCC: 0.0825
AGTGAACA: -0.142
CGTTGGCC: 0.00194
AGCTGGAG: -0.0261
ACGTCGCG: 0.0422
ATAACAGG: -0.0853
ATCCATAC: -0.0578
CACGCGAA: -0.0197
GAGTTAAC: -0.0246
ATAGATCG: -0.0492
ACAGGGAA: -0.102
AGCTTTTC: -0.123
ACGCCTCA: -0.0854
CCCCCATC: -0.0858
CGAAATTA: 0.0635
GGTCGAAC: 0.125
TCGCTACA: -0.291
ACCACCGT: -0.0761
AGATGTCA: -0.0112
GCCTAATA: -0.024

Sample 2
Target: Interferon regulatory factor 7, full length, phosphomimetic (IRF7, Homo sapiens, UniProt Q92985, residues 1-503, S471D/S472D/S475D/S476D/S477D/S483D/S484D/S487D)
Technique: protein-binding microarray
Form: double-stranded DNA, one strand shown
Sample: in vitro
Concentration: 2200 nM top
Notes: 60-bp whole probe
Added: salmon DNA 0.4 mg/ml
Relative to: random background probes
Direction: higher = stronger binding
Endpoint: fitted relative affinity
Shared flanks, not repeated: GCCTAGCAC … GTCTTGATTCGCTTGACGCTGCTG
Residues (chain): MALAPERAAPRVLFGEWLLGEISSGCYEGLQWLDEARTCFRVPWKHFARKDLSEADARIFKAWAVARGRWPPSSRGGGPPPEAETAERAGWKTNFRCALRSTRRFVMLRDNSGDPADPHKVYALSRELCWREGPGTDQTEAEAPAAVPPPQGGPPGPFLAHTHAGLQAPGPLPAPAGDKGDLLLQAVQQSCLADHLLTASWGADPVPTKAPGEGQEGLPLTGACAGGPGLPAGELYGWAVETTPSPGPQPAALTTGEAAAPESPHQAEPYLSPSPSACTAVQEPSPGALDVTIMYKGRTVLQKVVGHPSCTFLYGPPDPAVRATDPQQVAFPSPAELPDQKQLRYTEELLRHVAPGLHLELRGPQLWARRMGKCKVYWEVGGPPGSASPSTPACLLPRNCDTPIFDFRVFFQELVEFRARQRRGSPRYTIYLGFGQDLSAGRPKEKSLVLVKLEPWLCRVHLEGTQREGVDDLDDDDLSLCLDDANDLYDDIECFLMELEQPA
TCAGTTCTCCCTTTCAGTTTGTGCTAG: 4.54 z-score
TTAGAGATCGGGACTGGATTAGTGCTA: -0.788 z-score
GACGGTTTCGGTTCTGGGACGTGCTAG: 11.9 z-score
GACGGACTGGGGTAGCGGGACGTGCTA: -0.739 z-score
GACGGGTTCGGGTTTCGGGACGTGCTA: 2.03 z-score
TTAGGTTTGGGGACTGGGTTAGTGCTA: 0.0257 z-score
TTAGGTTTCCTACTGCTTTAGTGCTAG: 1.29 z-score
ATTGGTTGAACATGAACTTCGTGCTAG: 0.339 z-score
TCAATTTTCTGAATGCCACTGTGCTAG: 2.91 z-score
GAGGGACTGCTACTGCTGACGTGCTAG: -0.681 z-score
GTCGGACTGGGGACTGGGGACGTGCTA: -0.459 z-score
GACGATTTCAGTTTCGAGAGGTGCTAG: 4.09 z-score
TTAAGTATCGGGTATCGGTTAGTGCTA: 0.701 z-score
TTAGGTTTCCTAGTGCTTTAGTGCTAG: 0.528 z-score
TCATATATCCATTATAGACTGTGCTAG: 1.18 z-score
TTAGGTTTCGGTTTCGGATAGTGCTAG: 14.7 z-score
TCAACTTTCTTAATGCTACTGTGCTAG: 2.13 z-score
GTGGGAAACCGGAAAGGCAAAGTGCTA: -0.645 z-score
GACGGTCTCGGTTTTGGGACGTGCTAG: 1.3 z-score

Sample 3
Target: Prothrombin, mature alpha-thrombin (F2, Homo sapiens, UniProt P00734)
Technique: aptamer microarray, sandwich
Form: DNA with 2'F-ANA
Sample: in vitro
Concentration: 200 nM
Notes: whole 15-mer aptamer, many near background
Added: Cy3 exosite-II aptamer, 400 nM
Direction: higher = stronger binding
Endpoint: mean fluorescence intensity
Strand: GGTTGGTGTGGTTGG
2'F-ANA at 3 4 5 6 8 9 10 13 14: 47.3 a.u.
2'F-ANA at 1 3 5 9 13 15: 50.7 a.u.
2'F-ANA at 4 6 7 8 9 12 13 14 15: 93.6 a.u.
2'F-ANA at 2 5 7 9 10 12: 52.8 a.u.
2'F-ANA at 2 10 11 12 14: 99.6 a.u.
2'F-ANA at 1 2 4 8 10 11 12 13 14: 45.7 a.u.
2'F-ANA at 1 2 5 8 9 11 12 13 14 15: 48.1 a.u.
2'F-ANA at 1 2 4 5 6 10 11 13: 50.7 a.u.
2'F-ANA at 2 4 5 6 10 11 12: 168 a.u.
2'F-ANA at 5 7 8 10 12 13 14 15: 45.9 a.u.
2'F-ANA at 3 5 13 15: 86.9 a.u.
2'F-ANA at 2 4 7 8 9 11 12 13 14: 107 a.u.
2'F-ANA at 1 9 12 13 14 15: 69.3 a.u.
2'F-ANA at 5 6 7 9 11 12 14: 47.4 a.u.
2'F-ANA at 4 5 6 7 10 13 14: 45.7 a.u.
2'F-ANA at 1 4 6 7 8 9 10 12 13 14: 46.2 a.u.
2'F-ANA at 2 5 11 13 15: 55 a.u.
2'F-ANA at 1 4 7 9 11 14: 48 a.u.
2'F-ANA at 5 8 10 14: 57 a.u.
2'F-ANA at 6 7 8 13 14 15: 205 a.u.

Sample 4
Target: ABI1, truncated, D143A, DHFR fusion (Arabidopsis thaliana)
Technique: DHFR PCA, deep sequencing
Sample: yeast
Notes: methotrexate growth selection, single substitutions
Added: (+)-ABA 0.11 µM
Relative to: wild-type fitted maximum
Direction: higher = stronger binding
Endpoint: relative binding score
Starting sequence: PYL1, truncated, DHFR fusion (Arabidopsis thaliana); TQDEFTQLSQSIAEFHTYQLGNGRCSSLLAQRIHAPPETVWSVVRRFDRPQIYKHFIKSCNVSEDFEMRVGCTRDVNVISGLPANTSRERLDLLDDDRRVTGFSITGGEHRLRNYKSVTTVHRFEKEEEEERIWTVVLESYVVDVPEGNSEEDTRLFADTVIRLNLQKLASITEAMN; partner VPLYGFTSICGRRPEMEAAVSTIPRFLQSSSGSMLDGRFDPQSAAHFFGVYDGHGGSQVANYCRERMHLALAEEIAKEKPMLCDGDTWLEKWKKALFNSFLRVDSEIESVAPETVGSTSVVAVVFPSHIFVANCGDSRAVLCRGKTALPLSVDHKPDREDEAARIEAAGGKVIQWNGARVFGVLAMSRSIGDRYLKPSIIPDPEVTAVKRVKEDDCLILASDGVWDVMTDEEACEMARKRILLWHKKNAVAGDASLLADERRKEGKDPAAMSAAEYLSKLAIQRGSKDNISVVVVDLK
K168L: 4.78%
G21E: 50.4%
S117C: -2.35%
G81S: 41.1%
R123H: 44.1%
D65E: 20.4%
S59N: 15.6%
C72S: 33%
S87I: 55.7%
L156N: -0.342%
W134G: 23.8%
F66T: 13.2%
Q19W: 3.36%
T135L: -3.67%
Q31I: 2.44%
F103R: -6.54%

Sample 5
Target: CCND2, cyclin fold, Cln2 fusion (human)
Technique: yeast growth competition, sequencing
Sample: yeast
Notes: weak parent motif
Relative to: not given
Direction: higher = stronger binding
Endpoint: normalised enrichment score
Starting sequence: SLBP docking peptide (human); ARYKRKLLINDFG
L7C: 0.221
F12R: 0.363
L7F: 0.0671
R2P: 0.318
G13R: 0.0698
G13T: -0.0277
A1E: -0.322
L7N: 0.505
F12S: -0.0221
G13Y: 0.266
K4A: 0.245
G13P: 0.615
D11K: -0.445
K4E: 0.395
N10Q: 0.458
Y3D: 0.172
I9Y: 0.0139
K4L: 0.219
N10L: 0.752

Mixed results
PhoQ, residues 284 288 289 292 302 303 SSTMSV
fold induction (PhoP, residues 12 14 15 18 19 GQALL (Escherichia coli, UniProt P23836); Sort-seq, measured: YFP reporter; E. coli; PhoQ-PhoP variant library, added: 10 µM Mg2+; relative to: high Mg2+ state, higher = stronger signaling): 1.03

For quick reference, copied from above (sample 1):
ACGCCTCA: -0.0854
CCCCCATC: -0.0858
CGAAATTA: 0.0635
GGTCGAAC: 0.125
TCGCTACA: -0.291
ACCACCGT: -0.0761
AGATGTCA: -0.0112
